Assay results pooled from the literature.
Numbered parts are unrelated; each lists some results of a single study. Changes are numbered by the printed parent chain.
Sequence of UniProt P10721 (whole entry, unmodified, looked up): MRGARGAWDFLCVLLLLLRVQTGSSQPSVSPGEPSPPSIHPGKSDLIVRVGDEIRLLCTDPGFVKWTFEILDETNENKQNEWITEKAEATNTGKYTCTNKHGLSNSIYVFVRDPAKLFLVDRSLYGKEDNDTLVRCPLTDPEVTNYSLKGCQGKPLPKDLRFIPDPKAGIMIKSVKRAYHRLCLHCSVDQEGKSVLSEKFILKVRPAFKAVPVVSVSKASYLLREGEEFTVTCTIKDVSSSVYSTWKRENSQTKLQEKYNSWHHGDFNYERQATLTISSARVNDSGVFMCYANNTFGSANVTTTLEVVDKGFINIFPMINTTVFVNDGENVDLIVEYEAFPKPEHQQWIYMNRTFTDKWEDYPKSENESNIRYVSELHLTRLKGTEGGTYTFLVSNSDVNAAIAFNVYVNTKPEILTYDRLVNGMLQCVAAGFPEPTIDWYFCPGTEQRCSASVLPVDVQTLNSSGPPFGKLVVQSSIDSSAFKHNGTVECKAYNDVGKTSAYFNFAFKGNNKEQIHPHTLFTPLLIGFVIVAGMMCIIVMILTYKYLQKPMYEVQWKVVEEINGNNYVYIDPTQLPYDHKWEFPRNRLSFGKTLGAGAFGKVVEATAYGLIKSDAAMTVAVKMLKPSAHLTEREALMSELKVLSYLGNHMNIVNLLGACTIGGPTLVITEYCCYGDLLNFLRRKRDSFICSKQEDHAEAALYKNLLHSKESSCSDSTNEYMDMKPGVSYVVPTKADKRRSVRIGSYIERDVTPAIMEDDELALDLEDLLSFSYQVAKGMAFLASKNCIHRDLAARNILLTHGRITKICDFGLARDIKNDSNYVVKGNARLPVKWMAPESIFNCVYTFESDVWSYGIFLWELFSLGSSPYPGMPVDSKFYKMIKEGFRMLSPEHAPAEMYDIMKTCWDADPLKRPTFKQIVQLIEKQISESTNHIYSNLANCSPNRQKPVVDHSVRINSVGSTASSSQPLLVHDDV
Sequence of UniProt Q9H3Y6 (whole entry, looked up): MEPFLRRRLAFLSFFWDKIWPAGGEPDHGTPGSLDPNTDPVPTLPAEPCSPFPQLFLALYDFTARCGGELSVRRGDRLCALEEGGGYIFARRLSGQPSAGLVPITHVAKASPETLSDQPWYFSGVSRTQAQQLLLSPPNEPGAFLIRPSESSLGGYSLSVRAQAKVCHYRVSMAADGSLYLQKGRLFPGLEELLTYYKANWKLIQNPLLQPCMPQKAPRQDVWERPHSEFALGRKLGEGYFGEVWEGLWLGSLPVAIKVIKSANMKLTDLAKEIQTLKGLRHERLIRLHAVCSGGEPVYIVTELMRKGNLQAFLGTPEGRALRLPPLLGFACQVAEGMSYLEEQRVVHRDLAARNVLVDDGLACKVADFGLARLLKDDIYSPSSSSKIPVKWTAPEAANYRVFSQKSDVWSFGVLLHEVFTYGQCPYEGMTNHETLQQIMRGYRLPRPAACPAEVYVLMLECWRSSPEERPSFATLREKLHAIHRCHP
Sequence of UniProt Q9Y4K4 (whole entry, looked up): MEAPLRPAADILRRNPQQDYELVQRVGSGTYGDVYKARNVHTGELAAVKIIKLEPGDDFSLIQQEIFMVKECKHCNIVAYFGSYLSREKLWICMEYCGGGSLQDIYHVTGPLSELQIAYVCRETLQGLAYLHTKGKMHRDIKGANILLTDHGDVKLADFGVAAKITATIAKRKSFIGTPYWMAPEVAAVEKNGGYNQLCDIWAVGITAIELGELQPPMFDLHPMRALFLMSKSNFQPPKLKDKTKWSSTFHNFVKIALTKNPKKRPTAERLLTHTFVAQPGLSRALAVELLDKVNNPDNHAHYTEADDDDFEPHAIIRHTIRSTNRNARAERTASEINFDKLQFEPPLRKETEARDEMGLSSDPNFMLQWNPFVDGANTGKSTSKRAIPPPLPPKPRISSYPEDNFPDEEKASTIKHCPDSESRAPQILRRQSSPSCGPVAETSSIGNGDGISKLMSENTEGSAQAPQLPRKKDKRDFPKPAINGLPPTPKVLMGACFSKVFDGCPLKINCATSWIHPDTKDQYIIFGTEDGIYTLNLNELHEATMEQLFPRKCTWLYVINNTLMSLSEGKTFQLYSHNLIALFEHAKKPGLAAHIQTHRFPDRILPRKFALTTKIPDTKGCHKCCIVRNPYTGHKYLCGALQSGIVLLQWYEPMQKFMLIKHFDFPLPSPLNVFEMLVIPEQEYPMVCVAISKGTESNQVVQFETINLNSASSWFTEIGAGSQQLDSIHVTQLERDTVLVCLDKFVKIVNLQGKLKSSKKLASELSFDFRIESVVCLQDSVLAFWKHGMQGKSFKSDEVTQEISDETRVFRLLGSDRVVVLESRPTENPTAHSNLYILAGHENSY
Sequence of UniProt P27448 (whole entry, looked up): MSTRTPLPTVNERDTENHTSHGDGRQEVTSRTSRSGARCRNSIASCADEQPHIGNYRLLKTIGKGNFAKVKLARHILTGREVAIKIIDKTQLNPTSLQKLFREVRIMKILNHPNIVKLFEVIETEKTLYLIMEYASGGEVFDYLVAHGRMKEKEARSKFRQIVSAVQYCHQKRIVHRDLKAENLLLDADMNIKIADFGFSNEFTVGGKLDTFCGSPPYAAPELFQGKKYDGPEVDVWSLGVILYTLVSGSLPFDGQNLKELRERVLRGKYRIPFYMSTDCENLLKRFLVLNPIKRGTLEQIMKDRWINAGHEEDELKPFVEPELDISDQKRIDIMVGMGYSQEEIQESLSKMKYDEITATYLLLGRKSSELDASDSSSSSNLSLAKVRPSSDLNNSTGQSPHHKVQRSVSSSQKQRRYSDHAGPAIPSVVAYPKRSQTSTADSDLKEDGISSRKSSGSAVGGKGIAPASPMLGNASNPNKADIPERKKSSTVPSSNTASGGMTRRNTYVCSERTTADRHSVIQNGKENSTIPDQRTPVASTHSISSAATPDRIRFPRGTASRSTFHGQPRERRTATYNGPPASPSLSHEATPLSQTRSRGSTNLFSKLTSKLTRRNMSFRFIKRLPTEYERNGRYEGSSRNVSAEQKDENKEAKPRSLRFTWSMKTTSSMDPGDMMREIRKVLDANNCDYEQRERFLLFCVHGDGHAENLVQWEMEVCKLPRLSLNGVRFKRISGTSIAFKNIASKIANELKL
Sequence of UniProt P0C264 (whole entry, looked up): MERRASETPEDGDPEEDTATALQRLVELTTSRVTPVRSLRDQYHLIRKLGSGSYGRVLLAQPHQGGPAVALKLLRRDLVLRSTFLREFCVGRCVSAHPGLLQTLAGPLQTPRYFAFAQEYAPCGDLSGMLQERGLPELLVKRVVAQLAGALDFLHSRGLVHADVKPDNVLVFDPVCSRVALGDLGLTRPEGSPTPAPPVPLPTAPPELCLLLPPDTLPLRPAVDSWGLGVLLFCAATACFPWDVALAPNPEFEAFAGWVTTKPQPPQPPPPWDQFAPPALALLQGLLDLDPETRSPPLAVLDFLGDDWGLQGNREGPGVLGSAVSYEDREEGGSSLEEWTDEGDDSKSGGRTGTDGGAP
Sequence of UniProt Q9UIK4 (whole entry, looked up): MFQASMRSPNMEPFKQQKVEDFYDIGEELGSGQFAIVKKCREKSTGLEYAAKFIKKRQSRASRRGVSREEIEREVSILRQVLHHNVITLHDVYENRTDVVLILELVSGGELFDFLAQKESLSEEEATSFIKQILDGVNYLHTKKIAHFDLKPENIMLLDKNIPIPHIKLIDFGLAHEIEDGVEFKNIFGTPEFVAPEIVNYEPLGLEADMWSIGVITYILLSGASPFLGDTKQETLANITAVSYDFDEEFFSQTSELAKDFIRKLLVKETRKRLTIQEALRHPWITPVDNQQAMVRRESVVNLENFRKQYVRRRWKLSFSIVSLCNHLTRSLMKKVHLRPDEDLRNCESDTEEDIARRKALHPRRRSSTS
Sequence of UniProt Q00536 (whole entry, looked up): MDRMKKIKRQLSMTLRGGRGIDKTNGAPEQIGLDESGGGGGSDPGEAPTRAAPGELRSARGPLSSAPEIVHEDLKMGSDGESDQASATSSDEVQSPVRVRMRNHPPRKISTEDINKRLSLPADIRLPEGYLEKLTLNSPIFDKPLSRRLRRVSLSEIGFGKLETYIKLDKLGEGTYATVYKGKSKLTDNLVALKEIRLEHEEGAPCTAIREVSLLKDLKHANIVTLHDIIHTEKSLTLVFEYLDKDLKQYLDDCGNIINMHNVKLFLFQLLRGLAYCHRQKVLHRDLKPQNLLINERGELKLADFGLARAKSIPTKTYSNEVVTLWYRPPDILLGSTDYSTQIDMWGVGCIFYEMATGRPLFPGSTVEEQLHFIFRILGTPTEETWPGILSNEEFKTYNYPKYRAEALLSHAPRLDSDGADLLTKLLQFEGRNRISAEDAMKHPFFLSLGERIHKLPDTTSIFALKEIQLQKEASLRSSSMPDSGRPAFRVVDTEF
Sequence of UniProt Q8WTQ7 (whole entry, looked up): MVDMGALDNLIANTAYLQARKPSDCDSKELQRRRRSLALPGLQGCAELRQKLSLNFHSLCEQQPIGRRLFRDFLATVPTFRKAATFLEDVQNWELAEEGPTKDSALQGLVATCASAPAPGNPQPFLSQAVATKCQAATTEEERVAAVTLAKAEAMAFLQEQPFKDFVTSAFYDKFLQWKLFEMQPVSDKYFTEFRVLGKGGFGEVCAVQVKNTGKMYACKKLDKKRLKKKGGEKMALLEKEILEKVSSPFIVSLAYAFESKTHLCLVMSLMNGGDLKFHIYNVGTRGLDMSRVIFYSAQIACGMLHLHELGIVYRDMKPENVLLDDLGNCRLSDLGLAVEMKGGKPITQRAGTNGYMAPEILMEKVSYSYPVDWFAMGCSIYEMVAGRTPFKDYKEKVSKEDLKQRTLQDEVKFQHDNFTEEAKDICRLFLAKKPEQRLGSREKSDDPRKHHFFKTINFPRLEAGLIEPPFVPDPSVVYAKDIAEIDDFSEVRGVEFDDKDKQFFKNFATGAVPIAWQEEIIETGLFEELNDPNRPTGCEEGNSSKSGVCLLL

Block 1
SMILES: CCS(=O)(=O)c1cc2cc(C[C@@](O)(CC(C)(C)c3ccc(F)cc3C(N)=O)C(F)(F)F)[nH]c2cn1
Observed: cell-free assay
Method: competition with immobilised ligand
Tested at: 1 µM
Quantity: remaining binding
target = Mast/stem cell growth factor receptor Kit (KIT, Homo sapiens, UniProt P10721, L576P); result = 100%
target = Death-associated protein kinase 2 (DAPK2, Homo sapiens, UniProt Q9UIK4); result = 100%
target = Mitogen-activated protein kinase kinase kinase kinase 5 (MAP4K5, Homo sapiens, UniProt Q9Y4K4); result = 99%
target = Uncharacterized serine/threonine-protein kinase SBK3 (SBK3, Homo sapiens, UniProt P0C264); result = 94%
target = Rhodopsin kinase GRK7 (GRK7, Homo sapiens, UniProt Q8WTQ7); result = 95%
target = Tyrosine-protein kinase Srms (SRMS, Homo sapiens, UniProt Q9H3Y6); result = 72%
target = Mitogen-activated protein kinase kinase kinase 1 (MAP3K1, Homo sapiens, UniProt Q13233); result = 51%
target = Tyrosine-protein kinase CSK (CSK, Homo sapiens, UniProt P41240); result = 82%
target = Tyrosine-protein kinase ABL1, phosphorylated (ABL1, Homo sapiens, UniProt P00519, F317L); result = 61%
target = Cyclin-dependent kinase 16 (CDK16, Homo sapiens, UniProt Q00536); result = 78%
target = MAP/microtubule affinity-regulating kinase 3 (MARK3, Homo sapiens, UniProt P27448); result = 100%
target = Mast/stem cell growth factor receptor Kit (KIT, Homo sapiens, UniProt P10721, T670I/V559D); result = 100%
target = cAMP-dependent protein kinase catalytic subunit alpha (PRKACA, Homo sapiens, UniProt P17612); result = 100%

Block 2
Host: mouse
Sample: microsomes or S9
Tested at: 2 µM
Time: 0.5 h
Quantity: remaining compound
SMILES = Cn1cc(S(=O)(=O)N2CCc3sccc3C2c2cccs2)c(=O)n(C)c1=O (stereo not shown); result = 3.47%
SMILES = OC(Cn1c(Cc2ccccc2)nc2ccccc21)Cn1c2ccc(Cl)cc2c2cc(Cl)ccc21 (stereo not shown); result = 67.7%
SMILES = CC(=O)Nc1cccc(C2CCN(C(=O)c3cc4cc(-c5ccc(Cl)cc5)c5ccccc5c4s3)CC2)c1; result = 75.5%

Block 3
Target: CCNB2, cyclin fold, Cln2 fusion (human)
Method: yeast growth competition, sequencing
Sample: yeast
Setting: weak parent motif
Baseline: not given
Direction: higher = stronger binding
Quantity: normalised enrichment score
Starting sequence: RBL1 docking peptide (human); GSAKRRLFGEDPP
Substitution = L7T; result = -0.196
Substitution = S2A; result = 0.648
Substitution = R5I; result = -0.283
Substitution = K4A; result = -0.0772
Substitution = A3H; result = 0.492
Substitution = A3D; result = -0.473
Substitution = S2R; result = 0.122
Substitution = R5L; result = -0.166

Mixed results
Method: cross-linking MS
Substance = GPD2 (Homo sapiens, UniProt P43304); partner = IMMT (Homo sapiens, UniProt Q16891); test system = cell fractions; conditions = added: DMTMM; quantity = cross-linked residues; result = E426 to K102
Substance = H2AZ1 (Homo sapiens, UniProt P0C0S5); partner = H2BC21 (Homo sapiens, UniProt Q16778); conditions = hits only; quantity = interaction screen; result = cross-linked
Substance = BCAP31 (Homo sapiens, UniProt P51572); partner = BCAP29 (Homo sapiens, UniProt Q9UHQ4); conditions = hits only; quantity = interaction screen; result = cross-linked
Substance = UTP25 (Homo sapiens, UniProt Q68CQ4); partner = UTP3 (Homo sapiens, UniProt Q9NQZ2); test system = cell fractions; conditions = added: DSSO; quantity = cross-linked residues; result = K301 to K209

Some of these lines once more (block 1):
target = Mitogen-activated protein kinase kinase kinase kinase 5 (MAP4K5, Homo sapiens, UniProt Q9Y4K4); result = 99%
target = Rhodopsin kinase GRK7 (GRK7, Homo sapiens, UniProt Q8WTQ7); result = 95%
